Experimental data gathered from unrelated publications.
Numbered parts are unrelated; each lists some results of a single study.

Sample 1
Target: Sal-like protein 4, full length isoform B (SALL4, Homo sapiens, UniProt Q9UJQ4-2, residues 1-616)
Method: universal PBM
Molecule type: double-stranded DNA, one strand shown
Sample: in vitro
Concentration: not given
Setting: 8-mer, flanks averaged, mean of replicates
Direction: higher = stronger binding
Endpoint: E-score
GAATTCAC: -0.0591
CCTAGCAG: -0.16
CCGAGCTC: -0.244
ACCAGCCC: -0.222
CAGACAAG: -0.00194
AGCCAGCG: -0.313
CACGAGAC: -0.212

Sample 2
Target: RNA binding protein fox-1 homolog 2, RRM domain, GST-SBP tag (RBFOX2, Homo sapiens, UniProt O43251-10, residues 100-194)
Method: RNA Bind-n-Seq
Molecule type: RNA
Sample: in vitro
Concentration: 365 nM
Setting: natural RNA segment, single round, ends assumed
Baseline: no-protein control
Direction: higher = stronger binding
Endpoint: RBNS enrichment (R)
All sequences stand within: GGGAGUUCUACAGUCCGACGAUC … UGGAAUUCUCGGGUGCCAA
Construct (chain): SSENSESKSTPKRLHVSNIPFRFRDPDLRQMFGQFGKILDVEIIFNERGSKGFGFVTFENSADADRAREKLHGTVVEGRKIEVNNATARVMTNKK
AUAGUAUUUCUGAGUUGAAAGUCGAUGGUGCAAAUAUGUAUAUAACGUACUGUAUUUUUACAAUGAUCGUCGCAUGGCUCUCCCACCCCCUUUUGUACUCAGUAUCUGUC: 0.408
GGAUAAAGGCAAAUGAUUUGUGAGUCUUCUAGUUACUGGACCGAGUUUUCUGCUGGAUCUGGUGGGAAGGCAGCUCGGUAAAGUUUCCCUCCUGCUCCCCCCGCCCGACU: 0.402
UGUAGCUGGGAAGCAUCUUUUAGCCGACUAUACAUCACUUUGUUUUGAAACAAGGAAGCUGCGCUCUGUCAUGUGCUGCCUUUUUUAUUUAUUCAGGCUAAACCUACAAU: 1.88
CUAGCCAUACCUUUCUUAUGCAAGCCAUUGAGUUAUCAGGACUGUGAAUUAACACUGUAUGAAUAAAUUUCUGUACACCUUAUUGUUUGGCCAGAAGGCCACCAAGUGUA: 0.761
UAGCUUCUCCAAAGGCUCCCUGUGUUCUCACCGUGAUCAAGUUGAGGGGCUUCCGGCUCCCUUCUACAGCCUCAGAAACCAGACUCGUUCUUCUGGGAACCCUGCCCACU: 0.326
GGCCCUUUUUCUUUAUUGACUAGACCACCAGAGGAGGAUGUGUGGGAUUGUAGGCAAACCCACCUGUGGCAUCACUGAAAAUAAAUUUGAUCAUACCUAAGAGGUUAGGA: 0.719
UUGCCCCUCCCCCACACUCACUGCCCCUCCCCCCAGCGUCACCUGGGAUUUGCAGAUGUGUUUAGAAACACGCCCAGACCUUGAACCUUGGGUUCAUGGAUUAGUUUUGU: 0.912

Sample 3
Target: Histone acetyltransferase KAT6A, winged helix 2, GST fusion (KAT6A, Homo sapiens, UniProt Q92794, residues 85-181)
Method: protein binding microarray
Molecule type: double-stranded DNA, one strand shown
Sample: in vitro
Concentration: not given
Setting: 8-mer, flanks averaged, mean of 2 arrays, mostly near background
Baseline: not given
Direction: higher = stronger binding
Endpoint: E-score
Target sequence (chain): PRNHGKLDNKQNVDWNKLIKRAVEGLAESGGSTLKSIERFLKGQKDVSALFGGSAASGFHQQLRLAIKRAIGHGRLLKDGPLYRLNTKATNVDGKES
AGAGCGAT: -0.0434
AACTTGAA: 0.0804
TAATGCTA: 0.0943
GCCGGGAC: 0.247
GGGTACAC: -0.103
ACGGCCCG: 0.23
CCCGCAGG: 0.258
AGCGGTCC: 0.163
CTTGAGGC: 0.033
TACGGGGA: -0.00717
CATGTTCC: -0.102

Mixed results
YWHAB (Homo sapiens, UniProt P31946)  interaction screen (YWHAG (Homo sapiens, UniProt P61981); cross-linking MS; hits only): cross-linked
PhoQ, residues 284 288 289 292 302 303 QWGLFV  fold induction (PhoP, residues 12 14 15 18 19 STWGI (Escherichia coli, UniProt P23836); Sort-seq, refers to: YFP reporter; E. coli; PhoQ-PhoP variant library, together with: 10 µM Mg2+; baseline: high Mg2+ state, higher = stronger signaling): 0.615

A few entries again (sample 2):
UAGCUUCUCCAAAGGCUCCCUGUGUUCUCACCGUGAUCAAGUUGAGGGGCUUCCGGCUCCCUUCUACAGCCUCAGAAACCAGACUCGUUCUUCUGGGAACCCUGCCCACU: 0.326
GGCCCUUUUUCUUUAUUGACUAGACCACCAGAGGAGGAUGUGUGGGAUUGUAGGCAAACCCACCUGUGGCAUCACUGAAAAUAAAUUUGAUCAUACCUAAGAGGUUAGGA: 0.719
